Published values collected from several papers.
Numbered parts are unrelated; each lists some results of a single study.
UniProt Q9Y2K2, sequence (whole entry, looked up): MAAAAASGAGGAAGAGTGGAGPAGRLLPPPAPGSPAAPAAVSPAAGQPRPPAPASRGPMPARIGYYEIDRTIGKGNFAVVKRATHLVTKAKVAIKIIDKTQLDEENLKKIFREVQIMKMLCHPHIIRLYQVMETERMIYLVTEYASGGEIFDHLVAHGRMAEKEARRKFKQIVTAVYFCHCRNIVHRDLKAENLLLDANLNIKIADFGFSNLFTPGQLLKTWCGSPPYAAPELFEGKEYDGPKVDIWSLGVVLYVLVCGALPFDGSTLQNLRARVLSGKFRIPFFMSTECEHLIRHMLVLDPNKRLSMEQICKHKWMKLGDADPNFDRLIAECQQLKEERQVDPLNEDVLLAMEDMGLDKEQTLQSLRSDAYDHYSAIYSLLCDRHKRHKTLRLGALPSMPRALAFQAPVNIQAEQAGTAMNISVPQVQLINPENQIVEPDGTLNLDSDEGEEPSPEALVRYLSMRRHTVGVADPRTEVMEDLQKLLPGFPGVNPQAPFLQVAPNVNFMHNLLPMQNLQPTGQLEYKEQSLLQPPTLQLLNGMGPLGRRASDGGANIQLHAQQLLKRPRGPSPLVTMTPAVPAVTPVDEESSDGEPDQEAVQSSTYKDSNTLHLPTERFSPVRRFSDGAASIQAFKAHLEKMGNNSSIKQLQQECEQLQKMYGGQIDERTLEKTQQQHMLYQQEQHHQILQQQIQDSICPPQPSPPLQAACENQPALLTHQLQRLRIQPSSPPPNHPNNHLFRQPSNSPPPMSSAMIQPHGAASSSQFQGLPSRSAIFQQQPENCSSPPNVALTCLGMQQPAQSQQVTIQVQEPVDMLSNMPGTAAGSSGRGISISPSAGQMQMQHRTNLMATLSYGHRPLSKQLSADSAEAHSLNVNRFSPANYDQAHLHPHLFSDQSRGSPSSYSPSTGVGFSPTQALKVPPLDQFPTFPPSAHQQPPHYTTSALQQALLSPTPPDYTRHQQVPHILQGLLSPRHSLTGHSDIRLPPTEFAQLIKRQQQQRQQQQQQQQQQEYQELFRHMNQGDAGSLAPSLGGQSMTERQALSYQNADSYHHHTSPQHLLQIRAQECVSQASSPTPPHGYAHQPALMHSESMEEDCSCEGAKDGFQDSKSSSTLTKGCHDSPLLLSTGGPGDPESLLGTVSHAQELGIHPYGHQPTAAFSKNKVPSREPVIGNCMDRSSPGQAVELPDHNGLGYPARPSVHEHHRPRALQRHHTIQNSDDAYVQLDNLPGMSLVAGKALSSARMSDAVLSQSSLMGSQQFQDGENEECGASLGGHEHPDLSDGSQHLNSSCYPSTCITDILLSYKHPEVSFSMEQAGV

Sample 1
Target: Sox-I, HMG box (Salpingoeca helianthica)
Technique: Spec-seq
Form: double-stranded DNA, one strand shown
Matrix: in vitro
Concentration: not given
Setting: whole probe, mean of replicates
Reference: not given
Direction: lower = stronger binding
Quantity: relative binding energy
Shared flanks, not repeated: GAGTCGTCTCGTCAGCACC … CCGTAGAGCACTCAGGTC
Residues (chain): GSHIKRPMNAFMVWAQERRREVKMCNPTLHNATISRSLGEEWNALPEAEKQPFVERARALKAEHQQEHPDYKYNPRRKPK
ATACGT: 0.671 ln ratio
CCCGTT: 0.399 ln ratio
ATGCTA: 0.569 ln ratio
ATTCTT: -0.786 ln ratio
ATGGCG: 0.962 ln ratio
ATCGCT: 0.574 ln ratio
ATGCAT: 0.878 ln ratio
ATCATG: 0.527 ln ratio

Sample 2
Target: Centromere-binding protein 1, full length, N-terminal tag (CBF1, Saccharomyces cerevisiae, UniProt P17106, residues 1-351)
UniProt P17106, sequence (whole entry, looked up): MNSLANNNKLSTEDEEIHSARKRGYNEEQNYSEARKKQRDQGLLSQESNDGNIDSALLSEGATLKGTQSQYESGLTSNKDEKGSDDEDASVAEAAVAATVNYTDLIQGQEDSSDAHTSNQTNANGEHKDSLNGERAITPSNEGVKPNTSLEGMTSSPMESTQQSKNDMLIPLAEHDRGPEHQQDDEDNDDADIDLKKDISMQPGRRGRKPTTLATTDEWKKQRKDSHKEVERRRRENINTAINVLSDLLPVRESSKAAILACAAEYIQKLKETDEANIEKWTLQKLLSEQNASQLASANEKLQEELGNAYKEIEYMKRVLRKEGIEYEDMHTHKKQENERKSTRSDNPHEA
Technique: protein-binding microarray
Form: double-stranded DNA, one strand shown
Matrix: in vitro
Concentration: 0.8 µM
Setting: whole 60-bp probe, no competitor
Direction: higher = stronger binding
Quantity: fluorescence intensity
Shared flanks, not repeated: … GTCTTGATTCGCTTGACGCTGCTG
GAAAAAGTCAGAGCTCACGTCCATACAATTGAGTAG: 540 a.u.
CTACCCGCGAATTTTCACATGCACTTTAATCGATTC: 657 a.u.
GAACACCCACTACATCAGCTCGATGATGAACCTTAG: 494 a.u.
CTATCTATCTGTATTTACGTGATTTTATGAAGTTTC: 643 a.u.
GAAGTGAAAAATTATCACGATGGCAAAAGAGAGTAG: 663 a.u.
CTAAGTAAACTAAGTCATGTTAATCGTTTGGATTTC: 524 a.u.
CTACTTACTCAAGGTGACACAATCGTTACGACATTC: 564 a.u.
CTACAATTTTTTTTTCACGTAATTGGAGAAAAATTC: 557 a.u.

Sample 3
Target: Prothrombin, mature alpha-thrombin (F2, Homo sapiens, UniProt P00734)
Technique: aptamer microarray, sandwich
Form: DNA with 2'F-ANA
Matrix: in vitro
Concentration: 200 nM
Setting: whole 15-mer aptamer, many near background
Together with: Cy3 exosite-II aptamer, 400 nM
Direction: higher = stronger binding
Quantity: mean fluorescence intensity
Oligonucleotide: GGTTGGTGTGGTTGG
2'F-ANA at 2 3 4 8 11 13 15: 484 a.u.
2'F-ANA at 2 3 7 9 10 11 12 13 14: 263 a.u.
2'F-ANA at 5 6 7 10 11 12 14 15: 187 a.u.
2'F-ANA at 1 2 4 7 8 9 11 12 13 14 15: 57.8 a.u.
2'F-ANA at 3 11 13 15: 859 a.u.
2'F-ANA at 2 5 6 7 8 11 12 14 15: 51.5 a.u.
2'F-ANA at 1 2 3 4 5 9 12 13 14: 42.9 a.u.
2'F-ANA at 8 9 10 11: 197 a.u.

Other studies, line by line
FC(F)(F)c1ccc2c(c1)nc(-c1cccnc1)n2C1CC1 — remaining binding (Serine/threonine-protein kinase SIK3 (SIK3, Homo sapiens, UniProt Q9Y2K2); cell-free assay, competition with immobilised ligand; 1 µM): 100%

For quick reference, copied from above (sample 3):
2'F-ANA at 8 9 10 11: 197 a.u.
2'F-ANA at 3 11 13 15: 859 a.u.
